{"data": "Results from different studies", "target": "Adenosine receptor A3 (ADORA3, Homo sapiens, UniProt P0DMS8)", "note": "Each line is one published result; not all experiments were run side by side. Numbers after ± are the reported error.", "chain of UniProt P0DMS8 (whole entry, looked up)": "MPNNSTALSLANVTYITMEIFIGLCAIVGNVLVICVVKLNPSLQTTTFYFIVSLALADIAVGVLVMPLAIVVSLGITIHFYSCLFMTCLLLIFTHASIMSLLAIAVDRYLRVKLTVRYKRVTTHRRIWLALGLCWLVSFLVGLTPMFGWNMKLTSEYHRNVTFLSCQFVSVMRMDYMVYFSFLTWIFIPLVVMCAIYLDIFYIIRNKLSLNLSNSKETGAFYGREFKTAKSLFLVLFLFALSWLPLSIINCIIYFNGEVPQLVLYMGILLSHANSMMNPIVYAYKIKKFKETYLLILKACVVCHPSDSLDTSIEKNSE"}
{"SMILES": "CNC(=O)C[C@H](Cc1ccc(C#N)cc1)NC(=O)c1cc(-c2ccc(CN[C@H](C)c3ccc(C)cc3)o2)ccc1Cl", "test": "agonist response, antagonist", "test system": "human cells", "conditions": "10 µM, A3 antagonist", "quantity": "inhibition", "value": "-9%"}
{"SMILES": "O=C(O)COc1cccc(NC(=O)c2cc(-c3cccc(F)c3)ccc2F)c1", "test": "ligand displacement, radioligand", "conditions": "10 µM", "quantity": "inhibition", "value": "11%"}
{"SMILES": "Cn1ccc2cc(-n3c(=O)[nH]c4sc5c(c4c3=O)CCCC5)ccc21", "test": "cell-free assay, radioligand", "conditions": "10 µM", "quantity": "inhibition", "value": "7%"}
{"SMILES": "Cc1[nH]nc2c1N=C(c1ccccc1Cl)c1cnc(N3CCOCC3)cc1N2", "test": "cell-free assay", "conditions": "10 µM", "quantity": "inhibition", "value": "62%"}
{"SMILES": "CC(=O)c1cnc(N)nc1N1CC[C@H]1c1nn2ccc(Cl)c2c(=O)n1-c1ccccc1", "test": "ligand displacement, radioligand", "conditions": "10 µM", "quantity": "inhibition", "value": "32%"}
{"SMILES": "CCC(=O)N(C)c1ccc(Cl)c(Cl)c1", "test": "ligand displacement, radioligand", "conditions": "10 µM", "quantity": "inhibition", "value": "< 10%"}
{"SMILES": "O=C1c2sc(-c3ccc(N4CCC(CO)CC4)nc3F)nc2CCN1c1cccnc1", "test": "ligand displacement, radioligand", "conditions": "1 µM", "quantity": "inhibition", "value": "3%"}
{"SMILES": "CCCC(CCC)c1nc2c(Nc3ccc(C#CCCCCCCCCCN4CCCCC4)cc3)nc3ccccc3c2n1Cc1ccccc1", "test": "cAMP inhibition, ago-PAM", "test system": "HEK293 expressing ADORA3", "conditions": "10 µM, no orthosteric agonist", "scale": "reference: NECA", "quantity": "Emax", "value": "32 ± 1.3%"}
{"SMILES": "CO[C@@H](C)c1c(NC(=O)Nc2cnc(-n3nccn3)c(C(F)(F)F)c2)cnc2sc(C)nc12", "test": "ligand displacement, radioligand", "conditions": "10 µM", "quantity": "inhibition", "value": "19.5%"}
{"note": "Repeated from above:"}
{"SMILES": "O=C1c2sc(-c3ccc(N4CCC(CO)CC4)nc3F)nc2CCN1c1cccnc1", "test": "ligand displacement, radioligand", "conditions": "1 µM", "quantity": "inhibition", "value": "3%"}
